Results pooled from the literature.
Every numbered part comes from another study and shows a few of its results, in no order. Changes are numbered by the printed parent chain.
Chain of UniProt Q8N2K1 (whole entry, looked up): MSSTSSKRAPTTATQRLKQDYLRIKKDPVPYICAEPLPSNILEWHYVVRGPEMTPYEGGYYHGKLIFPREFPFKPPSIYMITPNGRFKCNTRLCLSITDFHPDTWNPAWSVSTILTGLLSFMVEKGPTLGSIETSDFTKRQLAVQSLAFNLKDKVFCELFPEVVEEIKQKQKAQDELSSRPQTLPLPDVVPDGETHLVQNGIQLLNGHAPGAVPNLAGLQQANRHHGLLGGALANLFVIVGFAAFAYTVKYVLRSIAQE
Chain of UniProt O00762 (whole entry, looked up): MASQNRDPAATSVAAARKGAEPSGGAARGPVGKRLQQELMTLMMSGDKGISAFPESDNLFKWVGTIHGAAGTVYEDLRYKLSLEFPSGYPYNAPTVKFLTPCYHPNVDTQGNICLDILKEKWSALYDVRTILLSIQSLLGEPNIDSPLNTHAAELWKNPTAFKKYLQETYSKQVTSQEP
Chain of UniProt P61081 (whole entry, looked up): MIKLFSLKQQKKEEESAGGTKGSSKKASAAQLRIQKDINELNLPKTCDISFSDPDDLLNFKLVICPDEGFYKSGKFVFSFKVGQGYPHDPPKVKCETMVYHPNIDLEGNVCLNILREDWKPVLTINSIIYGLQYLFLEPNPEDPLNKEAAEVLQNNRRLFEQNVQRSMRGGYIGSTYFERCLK
Chain of UniProt Q9C0C9 (whole entry, looked up): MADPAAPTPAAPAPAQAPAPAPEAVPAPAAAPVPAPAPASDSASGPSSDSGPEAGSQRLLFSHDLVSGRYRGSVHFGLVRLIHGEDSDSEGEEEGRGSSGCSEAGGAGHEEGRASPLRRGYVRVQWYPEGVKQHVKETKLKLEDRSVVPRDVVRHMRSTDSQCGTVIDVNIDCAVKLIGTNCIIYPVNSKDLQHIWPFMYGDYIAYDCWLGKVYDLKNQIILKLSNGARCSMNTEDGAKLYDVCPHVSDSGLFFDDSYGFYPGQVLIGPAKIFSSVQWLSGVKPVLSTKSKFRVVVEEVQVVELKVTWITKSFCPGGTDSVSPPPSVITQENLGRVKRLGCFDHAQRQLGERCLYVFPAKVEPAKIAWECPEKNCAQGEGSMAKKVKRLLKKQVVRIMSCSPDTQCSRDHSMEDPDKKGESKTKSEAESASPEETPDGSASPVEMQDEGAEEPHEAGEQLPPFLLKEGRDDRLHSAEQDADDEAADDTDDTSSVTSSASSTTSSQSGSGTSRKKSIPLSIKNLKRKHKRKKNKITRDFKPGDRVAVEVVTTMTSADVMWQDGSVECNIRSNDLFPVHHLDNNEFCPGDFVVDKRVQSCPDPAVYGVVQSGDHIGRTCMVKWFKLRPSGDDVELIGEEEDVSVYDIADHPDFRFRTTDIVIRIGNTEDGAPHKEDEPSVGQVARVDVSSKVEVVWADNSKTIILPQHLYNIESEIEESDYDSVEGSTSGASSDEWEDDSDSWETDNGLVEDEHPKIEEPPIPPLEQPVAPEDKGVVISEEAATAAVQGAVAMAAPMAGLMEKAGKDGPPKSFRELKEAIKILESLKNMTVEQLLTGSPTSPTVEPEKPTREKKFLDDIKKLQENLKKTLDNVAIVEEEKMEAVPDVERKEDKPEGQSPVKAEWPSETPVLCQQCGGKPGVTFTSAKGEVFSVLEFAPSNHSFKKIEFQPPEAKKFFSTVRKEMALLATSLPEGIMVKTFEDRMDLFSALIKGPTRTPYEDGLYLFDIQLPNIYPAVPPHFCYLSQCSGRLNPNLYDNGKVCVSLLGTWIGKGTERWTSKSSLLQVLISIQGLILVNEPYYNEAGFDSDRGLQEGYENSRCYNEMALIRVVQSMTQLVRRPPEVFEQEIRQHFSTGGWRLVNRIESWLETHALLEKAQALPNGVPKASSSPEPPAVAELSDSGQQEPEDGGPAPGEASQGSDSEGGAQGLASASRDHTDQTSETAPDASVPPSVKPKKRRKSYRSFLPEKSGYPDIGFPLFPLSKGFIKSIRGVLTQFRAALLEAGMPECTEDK
Chain of UniProt P62253 (whole entry, looked up): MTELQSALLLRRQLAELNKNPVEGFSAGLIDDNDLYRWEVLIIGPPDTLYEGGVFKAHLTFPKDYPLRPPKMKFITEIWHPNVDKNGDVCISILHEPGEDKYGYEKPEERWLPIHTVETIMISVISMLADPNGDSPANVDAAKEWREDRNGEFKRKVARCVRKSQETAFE
Chain of UniProt Q7Z7E8 (whole entry, looked up): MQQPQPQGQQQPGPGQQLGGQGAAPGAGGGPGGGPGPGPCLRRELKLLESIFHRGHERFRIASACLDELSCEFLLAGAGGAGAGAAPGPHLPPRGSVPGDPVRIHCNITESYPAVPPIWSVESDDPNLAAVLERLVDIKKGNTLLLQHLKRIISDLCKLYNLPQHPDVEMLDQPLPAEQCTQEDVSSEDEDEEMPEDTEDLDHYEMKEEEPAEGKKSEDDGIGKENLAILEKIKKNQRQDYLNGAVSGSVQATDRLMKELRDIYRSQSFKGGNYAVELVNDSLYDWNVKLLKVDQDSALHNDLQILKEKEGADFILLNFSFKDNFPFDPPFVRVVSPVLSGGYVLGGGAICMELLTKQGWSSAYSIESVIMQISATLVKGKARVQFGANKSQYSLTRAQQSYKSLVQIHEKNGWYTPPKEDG
Chain of UniProt Q9H832 (whole entry, looked up): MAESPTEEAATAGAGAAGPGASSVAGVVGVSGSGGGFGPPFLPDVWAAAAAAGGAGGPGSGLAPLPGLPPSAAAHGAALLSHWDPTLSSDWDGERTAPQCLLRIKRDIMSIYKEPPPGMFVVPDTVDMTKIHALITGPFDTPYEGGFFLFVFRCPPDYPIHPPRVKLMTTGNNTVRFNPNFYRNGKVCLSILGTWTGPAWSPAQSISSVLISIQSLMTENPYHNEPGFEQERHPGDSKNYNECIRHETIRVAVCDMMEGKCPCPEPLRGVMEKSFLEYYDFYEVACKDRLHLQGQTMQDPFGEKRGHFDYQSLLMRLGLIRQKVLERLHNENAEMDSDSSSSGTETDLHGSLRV
Chain of UniProt P63146 (whole entry, looked up): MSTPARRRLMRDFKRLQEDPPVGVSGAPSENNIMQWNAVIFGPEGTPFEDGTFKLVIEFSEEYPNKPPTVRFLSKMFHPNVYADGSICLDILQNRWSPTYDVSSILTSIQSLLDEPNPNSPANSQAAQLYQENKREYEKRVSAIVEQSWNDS

Sample 1
Target: RNA binding protein fox-1 homolog 2, RRM domain, GST-SBP tag (RBFOX2, Homo sapiens, UniProt O43251-10, residues 100-194)
Technique: RNA Bind-n-Seq
Form: RNA
Sample: in vitro
Tested at: 365 nM
Notes: natural RNA segment, single round, ends assumed
Reference: no-protein control
Direction: higher = stronger binding
Endpoint: RBNS enrichment (R)
Residues (chain): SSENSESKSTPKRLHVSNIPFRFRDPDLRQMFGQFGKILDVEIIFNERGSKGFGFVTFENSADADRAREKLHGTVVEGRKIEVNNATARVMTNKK
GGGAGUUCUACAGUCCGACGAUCCUCUCUGUGCUCCGUGGAGGCCUCCGUGUGCCCUCGUUGCCGUGGGGACCCAGCUCCAUGCACGUCAACCCAGUCCCGCCCAGACUAGUGGACAGACCUGGUGUCACCAGUGGAAUUCUCGGGUGCCAA: 0.261
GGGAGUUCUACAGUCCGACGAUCCAAGUAAUGACACACUACUAUUAUUAUUACCUAAGUAGUGCUCAUCCUCUCUUUCUGUGUUUUCUUAGGAUGUGCACUUUAAUUUAGGAUUGUAACGCCUAAUAAUAUUUUGGAAUUCUCGGGUGCCAA: 0.446
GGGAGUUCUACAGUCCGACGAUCUAAGGAAUCACUGUGUACAAACUGGCCAAGUGCUUCUGUAGAUAACGUCAGUGGAGUAAAUAUUCGACAGGCCAUAACUUGAGUCUAUUGCCUUGCCUUUAUUACAUGUAUGGAAUUCUCGGGUGCCAA: 0.348
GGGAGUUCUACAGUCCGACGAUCGAUACAUCUCAGUGACCCAGGGUGGGAGGGCUAUCAGGGUGCAUGGCCCGGGACACGGGCACUCUUCAUGACCCCUCCCCCACCUGGGUUCUUCCUGUGUGGUCCAGAACUGGAAUUCUCGGGUGCCAA: 20.5
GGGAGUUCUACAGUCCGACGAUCCCCCAAGCCAGAGAGCCAGAAGCCAUCACCCAAUGACCGCCCCUUCCUUCCGGUCUACAAGAGCUCUCAAGGCUGGGUCUGCCACCACUCUGCUUUGCCCAAGUGUGACAUGGAAUUCUCGGGUGCCAA: 0.88
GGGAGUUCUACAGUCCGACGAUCAUGGAAUUAUCUGAGCUCUAUGGCACUGGUUGUUUAGAGUGACUGAUGAAGUGCAACUUUCAAAAACAUUUUUGAUGACAUCACCAGCCUACUGCAGAAGUGCAGGGCACUGGAAUUCUCGGGUGCCAA: 0.211
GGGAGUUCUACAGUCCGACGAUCGAGGAAAAAAAAAACCCUCUAGAAAAACAAAAAUGAAGACAGGAUCUCAUGUAUCGUAGAUUGGCCUUUAAGUCACUUUACCAAGGAUGAUCUUUGAACUCCUGAGUACAUGGAAUUCUCGGGUGCCAA: 0.377
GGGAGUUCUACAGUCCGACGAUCAUGUAUUUUUUCAUUCUAUAAGUUCUGUUCUAGAGAAUCCCAAGUAAUACAGAUUUUCAUAUCAGAGGUGGUUCUAGAGCAAUAGAAGUAUUAAGGUGAAUUUUUUUUAAUGGAAUUCUCGGGUGCCAA: 0.98

Sample 2
Molecule: KLWDINAHITCRLCSGYLIDATTVTECLHTFCRSCLVKYLEENNTCPTCRIVIHQSHPLQ (PCGF3 RING domain (UniProt Q3KNV8))
Technique: yeast two-hybrid
Sample: yeast
Notes: mostly zero background
Reference: not given
Direction: higher = stronger interaction
Endpoint: lacZ reporter activity
UBE2C UBC core domain (UniProt O00762): 0
UBE2Q1 UBC core domain (UniProt Q7Z7E8): 0
UBE2B UBC core domain (UniProt P63146): 0
UBE2M UBC core domain (UniProt P61081): 0
UBE2Z UBC core domain (UniProt Q9H832): 0
UBE2G1 UBC core domain (UniProt P62253): 0
UBE2O UBC core domain (UniProt Q9C0C9): 0
UBE2J2 UBC core domain (UniProt Q8N2K1): 0

Sample 3
Target: PABPC1L2, full length, GST fusion (mouse, UniProt A0ABA7IW68)
Technique: RNAcompete
Form: RNA
Sample: in vitro
Tested at: 20 nM
Notes: 7-mer, probes averaged, single round
Reference: mean of 7-mers
Direction: higher = stronger binding
Endpoint: 7-mer Z-score
Construct (chain): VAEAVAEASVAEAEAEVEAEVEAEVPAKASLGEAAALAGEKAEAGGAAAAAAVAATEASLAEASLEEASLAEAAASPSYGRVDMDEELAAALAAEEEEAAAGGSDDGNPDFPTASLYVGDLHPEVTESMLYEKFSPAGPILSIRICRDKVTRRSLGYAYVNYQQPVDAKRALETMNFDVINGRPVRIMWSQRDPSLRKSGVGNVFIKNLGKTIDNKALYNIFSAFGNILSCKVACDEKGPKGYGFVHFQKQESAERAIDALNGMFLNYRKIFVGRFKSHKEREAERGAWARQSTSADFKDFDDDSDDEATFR
GCUCGAC: -0.253
AGCCUUA: -0.267
GAGCAUG: 0.00254
AAAUGUC: 0.767
GUAAUUU: -0.226
GGUUUUG: -0.318
CAUGCCA: -0.184
UGUCUUU: -0.275

Further values, each from its own experiment
Parent: viral docking peptide; PGASRRLFGSSAD
S4A
normalised enrichment score (CCNB2, cyclin fold, Cln2 fusion (human); yeast growth competition, sequencing; yeast; weak parent motif; reference: not given, higher = stronger binding): 0.462

Repeated from above (sample 1):
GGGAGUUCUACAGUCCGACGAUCCCCCAAGCCAGAGAGCCAGAAGCCAUCACCCAAUGACCGCCCCUUCCUUCCGGUCUACAAGAGCUCUCAAGGCUGGGUCUGCCACCACUCUGCUUUGCCCAAGUGUGACAUGGAAUUCUCGGGUGCCAA: 0.88
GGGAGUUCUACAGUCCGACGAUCAUGGAAUUAUCUGAGCUCUAUGGCACUGGUUGUUUAGAGUGACUGAUGAAGUGCAACUUUCAAAAACAUUUUUGAUGACAUCACCAGCCUACUGCAGAAGUGCAGGGCACUGGAAUUCUCGGGUGCCAA: 0.211
